# Measurements gathered from unrelated publications.
# Each line is one published result; not all experiments were run side by side. ± gives the spread as reported.
SMILES,test,system,setting,scale,quantity,result
O=C(Nc1cnccc1Cl)N1CCN(Cc2ccc3c(c2)OC(F)(F)O3)CC1,,"elderly men and women, plasma","oral, 100 mg once daily, day 10",,CL/F,11.8 L/h
C[C@@H](N)C1CCN(S(=O)(=O)c2cccc3cnccc23)CC1,,"healthy volunteers, fasted, plasma","oral, 75 mg",,CL/F,5350 L/h
CCCCCCCCCCCCCCCC(=O)N[C@@H](CCC(=O)NCCCC[C@@H]1NC(=O)[C@H]([C@@H](C)CC)NC(=O)[C@@H](NC(=O)[C@@H]2CCCN2C(=O)[C@H](Cc2ccccc2)NC(=O)[C@H](Cc2c[nH]cn2)NC(=O)[C@@H](NC(=O)[C@H](CC(=O)O)NC(=O)CC(C)C)[C@@H](C)O)CSSC[C@@H](C(=O)N[C@@H](CCCCN)C(N)=O)NC(=O)CNC(=O)[C@H](CCCCN)NC(=O)[C@H](CO)NC(=O)[C@H](CCCNC(=N)N)NC(=O)[C@@H]2CCCN2C(=O)[C@H](CCC(=O)O)NC(=O)[C@H](Cc2ccccc2)NC1=O)C(=O)O,,"healthy volunteers, plasma","subcutaneous, 20 mg single, lyophilised formulation",,CL/F,0.979 ± 0.245 L/h
CO[C@H]1CC[C@H](N2C(=O)CNc3ncc(-c4ccc(C(C)(C)O)nc4)nc32)CC1,,"patients, plasma","30 mg, day -1, geometric mean",,CL/F,24.3 L/h
O=C(c1cccnc1-c1ccncc1)N1CCC(O)(Cc2ccccc2)CC1,,"healthy Japanese adults, plasma","oral, 300 mg twice daily, day 21",,CL/F,158 L/h
OC[C@H]1O[C@@H](c2ccc(F)c(Cc3cc4ccccc4s3)c2)[C@H](O)[C@@H](O)[C@@H]1O,,Japanese type 2 diabetes patients,"oral, 50 mg/day, day 14",,CL/F,8.96 ± 1.88 L/h
N#CC[C@H](C1CCCC1)n1cc(-c2ncnc3[nH]ccc23)cn1,,"children up to 12 years, plasma","oral, BSA-corrected",,CL/F,14.4 ± 8.5 L/h/m²
CC[C@@H]1CN(C(=O)NCC(F)(F)F)C[C@@H]1c1cnc2cnc3[nH]ccc3n12,population PK model,"healthy, RA and CD subjects, plasma","oral, immediate-release formulation",relative to: RA patients over non-RA subjects,CL/F ratio,0.779

# Repeated from above:
SMILES,test,system,setting,scale,quantity,result
OC[C@H]1O[C@@H](c2ccc(F)c(Cc3cc4ccccc4s3)c2)[C@H](O)[C@@H](O)[C@@H]1O,,Japanese type 2 diabetes patients,"oral, 50 mg/day, day 14",,CL/F,8.96 ± 1.88 L/h
